Measurements collected from several papers.
Compare with care: the assays were run in different laboratories. ± gives the spread as reported.
Target: Histone deacetylase 2 (HDAC2, Homo sapiens, UniProt Q92769)
UniProt Q92769, sequence (whole entry, looked up): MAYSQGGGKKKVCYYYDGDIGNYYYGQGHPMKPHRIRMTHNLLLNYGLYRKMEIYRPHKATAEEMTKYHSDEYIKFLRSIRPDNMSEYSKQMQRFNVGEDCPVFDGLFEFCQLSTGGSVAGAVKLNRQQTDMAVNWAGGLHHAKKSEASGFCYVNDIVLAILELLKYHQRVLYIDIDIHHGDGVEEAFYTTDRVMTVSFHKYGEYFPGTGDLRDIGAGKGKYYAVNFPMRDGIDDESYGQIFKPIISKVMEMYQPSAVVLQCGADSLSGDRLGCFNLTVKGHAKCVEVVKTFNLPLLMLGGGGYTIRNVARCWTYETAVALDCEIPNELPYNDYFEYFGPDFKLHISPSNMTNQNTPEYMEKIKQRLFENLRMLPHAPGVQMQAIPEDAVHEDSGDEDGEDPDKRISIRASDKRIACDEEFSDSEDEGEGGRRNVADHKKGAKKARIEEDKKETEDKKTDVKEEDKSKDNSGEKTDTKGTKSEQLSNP
Mode: inhibitor

Compound	assay	conditions	IC50
O=c1c2ccccc2sn1Cc1ccccc1	enzyme activity	–	> 10 µM
CN(C(=O)NC(C)(C)C)c1cnc2ccc(-c3ccc(OCCCCCC(=O)NO)nc3)cc2n1	enzyme activity, fluorescence	–	0.00609 µM
O=C(CCCCCCNc1ccc(C(=O)Nc2ccc(Cl)c(NC(=O)c3cccc(Cl)c3)c2)cn1)NO	enzyme activity, fluorescence	lysate	0.057 µM
Nc1ccc(-c2ccccc2)cc1NC(=O)N1CCCCC1	enzyme activity	–	0.271 µM
O=C(O)c1ccc(Cn2sc3ccccc3c2=O)cc1	enzyme activity	–	> 10 µM
O=C(CCCCCCNCc1ccc(-c2ccccc2)s1)NO	enzyme activity, fluorescence	–	0.69 µM
O=c1c2ccccc2[s+]([O-])n1-c1ccccc1 (centres unmarked)	enzyme activity	–	> 10 µM
Nc1ccc(-c2cccs2)cc1N	enzyme activity	–	> 33.3 µM
O=C(CCCC(=O)Nc1ccc(-[c-]2cccc2)cc1)NO.[Fe+2].c1cc[cH-]c1	enzyme activity, fluorescence	–	3.04 µM
COCCn1cc2c(n1)CN(C(=O)Nc1nc(-c3ccc(F)cc3F)ccc1N)C2	deacetylase activity, recombinant enzyme	–	0.28 µM
CN(C(=O)NC1CCCC1)c1cnc2ccc(-c3ccc(OCCCCCC(=O)NO)nc3)cc2n1	enzyme activity, fluorescence	–	0.00852 µM
O=C(CCCCCCNCc1ccc([N+](=O)[O-])cc1)NO	enzyme activity, fluorescence	–	2.9 µM
Nc1ccc(-c2ccc(F)cc2)cc1NC(=O)C1CCC1	enzyme activity	–	0.131 µM
O=C(CCCCCCN(Cc1ccccc1)Cc1ccccc1)NO	enzyme activity, fluorescence	–	2.7 µM
Nc1ccc(-c2ccc(F)cc2)cc1NC(=O)N1CCC1	enzyme activity	–	0.233 µM
Cc1cc(CNCCCCCCC(=O)NO)ccc1F	enzyme activity, fluorescence	–	0.79 µM
CC1CCC(NC(=O)N(C)c2cnc3ccc(-c4ccc(OCCCCCC(=O)NO)nc4)cc3n2)CC1 (centres unmarked)	enzyme activity, fluorescence	–	0.00304 µM
O=C(CCCCCCN(Cc1cc2ccccc2[nH]1)Cc1cc2ccccc2[nH]1)NO	enzyme activity, fluorescence	–	3.7 µM
Cc1cc(CN2CCC(CCCCCCC(=O)NO)CC2)cc(C)c1-c1ncn(C)c1-c1ccc(C#N)c2ccccc12	enzyme activity	–	0.00524 ± 0.00087 µM
O=C(CCCCCCN(Cc1ccc2c(c1)OCO2)Cc1ccc2c(c1)OCO2)NO	enzyme activity, fluorescence	–	4.2 µM
O=C(NO)c1ccc(Cn2sc3ccccc3c2=O)cc1	enzyme activity	–	> 10 µM
O=C(CCCCCCNCc1ccc(F)cc1)NO	enzyme activity, fluorescence	–	1.5 µM
O=C(NNCCCc1ccccc1)c1ccc(Br)cc1	enzyme activity	–	> 50 µM

Some of these lines once more:
Compound	assay	conditions	IC50
Nc1ccc(-c2ccc(F)cc2)cc1NC(=O)C1CCC1	enzyme activity	–	0.131 µM
Cc1cc(CNCCCCCCC(=O)NO)ccc1F	enzyme activity, fluorescence	–	0.79 µM
Nc1ccc(-c2ccccc2)cc1NC(=O)N1CCCCC1	enzyme activity	–	0.271 µM
O=C(CCCCCCN(Cc1cc2ccccc2[nH]1)Cc1cc2ccccc2[nH]1)NO	enzyme activity, fluorescence	–	3.7 µM
